Published values pooled from the literature.
Each numbered part is a random draw from the data of one study; scales do not carry over between parts.

Series 1 — technique: RNA Bind-n-Seq; form: RNA; matrix: in vitro; concentration: 200 nM; notes: whole 134-nt RNA, ends assumed; together with: 150 mM KCl; relative to: input library; direction: higher = stronger binding
Target: Fragile X messenger ribonucleoprotein 1, C-terminal low-complexity region (Fmr1, Mus musculus, UniProt P35922)
Sequence | log2 enrichment
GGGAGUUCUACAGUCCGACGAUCUAACUUUAGAGGAGGAUCUGAUGGAUAUGGCAGUGGAAGUGGAUUUGGGGAUGGCUAUAAUGGGUAUGGAGGAGGACCUGGAGGUGGCAAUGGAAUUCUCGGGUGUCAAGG | 0.145
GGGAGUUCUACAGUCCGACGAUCUGGGAGGUGGAUUUUGUUUAUUUUUUUAGCUCAUUUCCAGAGGUGGGAAUUUUUUUUUAAUAUGUGUCAUGAAUAAAGUUGUUUUUGAAAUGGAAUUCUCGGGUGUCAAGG | -0.0467
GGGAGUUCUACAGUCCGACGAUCCUCAAGUCCUGUGCUACACAUCGUAUGUACCGAAUCGGAAAAAGGAGGAAAGGAAAGUAUUAUGUUACGCCGUUCGGAUCUGCACUUCCAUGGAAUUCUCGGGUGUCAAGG | -0.277
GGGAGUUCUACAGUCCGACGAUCUCAAGUCCUGUGCUACACAUCGUAUGUACCGAAUCGGUUUGGAAAGGAAAAAGGAAAGUAUUAUGUUACGCCGUUCGGAUCUGCACUUCCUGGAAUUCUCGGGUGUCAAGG | -0.352
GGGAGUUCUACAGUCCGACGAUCCAAGUCCUGUGCUACACAUCGUAUGUACCGAAUCGGGUGGGUUUGGGUUUUUGGGAAAGUAUUAUGUUACGCCGUUCGGAUCUGCACUUCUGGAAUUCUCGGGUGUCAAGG | 1.02
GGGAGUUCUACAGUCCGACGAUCAAGUCCUGUGCUACACAUCGUAUGUACCGAAUCGGGGAAAGGGGAAAGGGAAAGGGGAAAGUAUUAUGUUACGCCGUUCGGAUCUGCACUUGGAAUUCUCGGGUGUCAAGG | 0.16
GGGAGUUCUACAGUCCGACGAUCGUCCUGUGCUACACAUCGUAUGUACCGAAUCGGGCCCCCCGGGCCCCCCGGCCCCCCGGAAAGUAUUAUGUUACGCCGUUCGGAUCUGCAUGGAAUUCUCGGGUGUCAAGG | -0.31
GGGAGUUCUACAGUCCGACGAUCUCCUGUGCUACACAUCGUAUGUACCGAAUCGGGGAAAAAGGGGUGGGGAAAAAAAGGGGAAAGUAUUAUGUUACGCCGUUCGGAUCUGCAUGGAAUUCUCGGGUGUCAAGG | 0.524
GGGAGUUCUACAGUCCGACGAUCGUCCUGUGCUACACAUCGUAUGUACCGAAUCGGUUUUUGGAAAAAAAGGAAAAAAAGGAAAGUAUUAUGUUACGCCGUUCGGAUCUGCACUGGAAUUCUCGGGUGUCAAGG | -0.872

Series 2 — technique: aptamer microarray, sandwich; form: DNA with 2'F-ANA; matrix: in vitro; concentration: 200 nM; together with: Cy3 exosite-II aptamer, 400 nM; direction: higher = stronger binding; sequence: GGTTGGTGTGGTTGG
Target: Prothrombin, mature alpha-thrombin (F2, Homo sapiens, UniProt P00734)
Notes: whole 15-mer aptamer, many near background
Modification | mean fluorescence intensity [a.u.]
2'F-ANA at 1 3 4 5 6 9 10 13 14 15 | 48.7
2'F-ANA at 1 2 4 6 8 9 10 11 | 50
2'F-ANA at 1 5 6 7 14 15 | 45.2
2'F-ANA at 2 3 5 6 8 11 12 13 14 15 | 116
2'F-ANA at 1 3 4 5 7 8 9 12 15 | 136
2'F-ANA at 3 4 7 10 11 12 13 14 | 221
2'F-ANA at 2 3 4 5 6 8 9 10 11 12 13 14 15 | 61.4
2'F-ANA at 1 2 4 5 9 10 12 14 | 45.6
2'F-ANA at 1 5 8 9 10 11 12 15 | 49.6
2'F-ANA at 2 4 5 6 11 13 15 | 54.8
2'F-ANA at 1 3 6 7 13 15 | 196
2'F-ANA at 2 3 4 9 11 12 14 | 266
2'F-ANA at 2 14 15 | 169
2'F-ANA at 3 4 5 8 12 | 240
2'F-ANA at 3 6 8 10 12 13 14 | 329
2'F-ANA at 2 4 7 10 14 | 64.8
2'F-ANA at 2 3 8 9 10 11 12 14 | 286
2'F-ANA at 1 3 4 5 6 9 10 12 | 49.7
2'F-ANA at 2 3 6 9 12 13 15 | 757
2'F-ANA at 3 4 5 6 8 10 14 15 | 62.1
2'F-ANA at 5 11 | 62
2'F-ANA at 1 2 3 6 10 11 13 14 | 79.4
2'F-ANA at 1 5 8 10 11 12 14 15 | 54.3
2'F-ANA at 3 6 10 12 | 633

Series 3 — technique: RNA Bind-n-Seq; form: RNA; matrix: in vitro; concentration: 365 nM; relative to: no-protein control; direction: higher = stronger binding
Target: RNA binding protein fox-1 homolog 2, RRM domain, GST-SBP tag (RBFOX2, Homo sapiens, UniProt O43251-10, residues 100-194)
Notes: natural RNA segment, single round, ends assumed
Target sequence (chain): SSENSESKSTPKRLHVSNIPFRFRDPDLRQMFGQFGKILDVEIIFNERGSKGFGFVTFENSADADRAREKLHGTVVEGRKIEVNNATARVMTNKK
Sequence | RBNS enrichment (R)
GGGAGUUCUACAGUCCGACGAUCUGGCCACUUUUAGACAUUAUCAUUUUGCCUCAGGUUGGAGGACUUUGUGGAAUUUAAGAAAUACAUUUUGUGUGCAUAUUGUUUCAUAGCAAGAAUUGGUUGCAAAAAAAUGGAAUUCUCGGGUGCCAA | 0.625
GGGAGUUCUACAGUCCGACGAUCUUCCUCAUUAACUGGGAGUCCCACUUACCUACUGUCAGCUGAUCACAGCAGCAAUGGCUAAUUCAGUCCGAGUCAACAACAGCCUCCUACUUCACAGGUUCUCUUCUCCCUGGAAUUCUCGGGUGCCAA | 0.497
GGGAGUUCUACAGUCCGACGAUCAACUUGUCCCUCAGGCUUGUUGCCCUCUGCAGUUGAUCUCCAAAGUUUUAAACCUGUUAAAUUAAUUUUGACAAAUAAGUUACCCUCAACUCAGAUCAAAAAUGGGCAGCUGGAAUUCUCGGGUGCCAA | 0.479
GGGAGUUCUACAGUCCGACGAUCGCAUUUUCAAAGGUCGGAGAUCUUUCUUCUGCCUGAGUUGGUCAUGUAGCAAUUUUUUCCUAAACACAAAAUGGCCUUUUGCUUGUCUGGUAAUGAGAUUGUAAAUCCAUUGGAAUUCUCGGGUGCCAA | 1.19
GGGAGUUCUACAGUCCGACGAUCCAGCCACAUGUCACCUGUAGGUAGAAGUAAACUCUGCAGUGCAGCUUCUGCUCUUGGCCCCUCUGGCCAGGGCCCCUGUGGCUUCCUGCACACUGGACAGGUGACUGUAUUGGAAUUCUCGGGUGCCAA | 0.309
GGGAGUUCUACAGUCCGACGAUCUUUGAAGGCAACAAGAACCAAACAGGAUCUUGUCAUCACAUCUGAAUAAAGCUCCAUGAGCUGGCUGAAAGCUGGACACGCAUUUGCCUUUUUUUUUUUGCCACCUCUUUUGGAAUUCUCGGGUGCCAA | 0.855
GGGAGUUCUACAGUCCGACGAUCUGCAUAAUUCUGCAGAUGUCCUAGGGUUUGAGUCAGUAACUUGUGAAUGAAAGUCAUUGGUAUUUGGCUUUGUGGUUACAGUACUAAUUUUACUUUGCUGCUCAGUUUUGUGGAAUUCUCGGGUGCCAA | 0.589
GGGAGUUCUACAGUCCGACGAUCCCUUGAGAUUGUCUUGGCAUGGCCCAGCCCUGCCUCAUGGGAUGGACAAUGCAUGGGGUGGUCUUUAUUUUUCCCUUUCAAAUAAAACACUAGUCAGGUACCGUUUUAUCUGGAAUUCUCGGGUGCCAA | 1.51

Series 4 — technique: protein binding microarray; form: double-stranded DNA, one strand shown; matrix: in vitro; concentration: not given; relative to: not given; direction: higher = stronger binding
Target: Histone acetyltransferase KAT6A, both winged helices, GST fusion (KAT6A, Homo sapiens, UniProt Q92794, residues 1-181)
Notes: 8-mer, flanks averaged, mean of 2 arrays, mostly near background
Residues (chain): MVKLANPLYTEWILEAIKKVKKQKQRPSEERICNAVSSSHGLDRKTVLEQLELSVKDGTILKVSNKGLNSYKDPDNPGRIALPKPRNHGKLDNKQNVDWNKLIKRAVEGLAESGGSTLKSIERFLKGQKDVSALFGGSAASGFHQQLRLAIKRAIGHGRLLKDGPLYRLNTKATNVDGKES
Sequence | E-score
GAGTTGCC | 0.0522
CACTGAAA | -0.0618
CCCCGTAC | 0.227
AACCAGTG | -0.114
CGATCGGC | 0.292
ACATTTCC | 0.0238
ATCATAAT | -0.0839
CTCACATA | -0.0555
AAGTCCGT | 0.213
CAGTCCAC | -0.208
AATACTTG | -0.201
ATGCTGAG | -0.0514
CTATTTTC | -0.114
AACCGCAT | 0.245
TACGCGTA | 0.351
CGCATAGC | 0.25
GCTTGGCC | 0.0768
CCCAGACG | 0.0418
GATACAGC | -0.00274
GCTCGGCC | 0.217
CGTTAGCA | 0.0411
AAGTCTAT | -0.192
AAGTATAA | -0.0985
GTTGAAAC | 0.0492

Repeated from above (series 2):
Modification | mean fluorescence intensity [a.u.]
2'F-ANA at 5 11 | 62
2'F-ANA at 1 3 4 5 6 9 10 12 | 49.7
2'F-ANA at 3 4 5 6 8 10 14 15 | 62.1
2'F-ANA at 2 3 4 5 6 8 9 10 11 12 13 14 15 | 61.4
2'F-ANA at 2 3 5 6 8 11 12 13 14 15 | 116
2'F-ANA at 1 3 6 7 13 15 | 196
2'F-ANA at 1 2 3 6 10 11 13 14 | 79.4
2'F-ANA at 1 3 4 5 6 9 10 13 14 15 | 48.7
